Measurements from different studies.
Each numbered part is a random draw from the data of one study; scales do not carry over between parts.

Block 1 — technique: RNAcompete; molecule type: RNA; matrix: in vitro; concentration: 20 nM; setting: 7-mer, probes averaged, single round; baseline: mean of 7-mers; direction: higher = stronger binding; quantity: 7-mer Z-score
Target: PABPC1L2, full length, GST fusion (mouse, UniProt A0ABA7IW68)
Target sequence (chain): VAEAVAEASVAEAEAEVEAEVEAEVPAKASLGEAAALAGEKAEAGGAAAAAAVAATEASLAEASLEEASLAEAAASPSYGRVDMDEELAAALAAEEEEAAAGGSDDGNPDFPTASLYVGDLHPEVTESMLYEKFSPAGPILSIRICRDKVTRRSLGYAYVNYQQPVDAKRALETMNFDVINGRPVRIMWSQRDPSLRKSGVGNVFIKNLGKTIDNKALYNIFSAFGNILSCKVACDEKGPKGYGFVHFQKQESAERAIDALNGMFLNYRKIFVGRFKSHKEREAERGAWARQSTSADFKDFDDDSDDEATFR
Sequence = UGGGCGU; result = 0.108
Sequence = AUACCGC; result = -0.315
Sequence = GUAGAUG; result = -0.012
Sequence = CGGUGUG; result = -0.0428
Sequence = UUCAAAG; result = -0.217
Sequence = AGUAGCU; result = -0.193
Sequence = UAUCCCA; result = -0.376
Sequence = UCCAUGC; result = -0.289

Block 2 — technique: RNA Bind-n-Seq; molecule type: RNA; matrix: in vitro; concentration: not given; baseline: input RNA pool; direction: higher = stronger binding; quantity: bound/input enrichment
Target: RING finger protein unkempt homolog, zinc fingers 1-6, GST-SBP tag (UNK, Homo sapiens, UniProt Q9C0B0, residues 30-357)
Setting: RNA with constant flanks, human and mouse sites, ends assumed
All sequences stand within: GGGAGUUCUACAGUCCGACGAUC … CAACAGAGGAUUGAGCAUCA
Residues (chain): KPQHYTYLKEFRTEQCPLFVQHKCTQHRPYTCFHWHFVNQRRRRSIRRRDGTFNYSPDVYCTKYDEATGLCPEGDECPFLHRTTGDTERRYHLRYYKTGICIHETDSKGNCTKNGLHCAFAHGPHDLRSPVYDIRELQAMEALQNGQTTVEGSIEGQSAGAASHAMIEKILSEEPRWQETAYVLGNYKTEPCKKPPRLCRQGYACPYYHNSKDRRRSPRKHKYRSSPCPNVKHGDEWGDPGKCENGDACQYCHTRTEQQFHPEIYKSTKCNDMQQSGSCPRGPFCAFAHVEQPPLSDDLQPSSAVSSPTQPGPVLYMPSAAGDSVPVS
Sequence = AGAAAGCAAAACUUGGAACGAUUUAAGAAAGGAGACGUAAGAUUCUUGAUUUGCACAGAUGUAGCUGCUAGAGGGAUUGAUAUCCAUGGCGUUCCUUAUGUGAUCAACGUCACCCUGCCU; result = 0.208 ratio
Sequence = ACUGCUCCAUCGAUCCCUUCACAUUUGUCUCCUGGUUUACGAGAUGUGGCUCUUCGUUGUUUAGAACUUCAACCUCAGGACAGACCUCCAUCAAGAGAGCUACUGAAGCAUCCAGUCUUU; result = 0.155 ratio
Sequence = CGCUGCUAUGUGGACUUCACAGGGGCCCAGAGCCAUUGUCUGCAUGUGUCCGCCCAGAAGAUGCUGGACGGUGCCUCCUUCACCCUGUAUGAGUUCUGGCAGGAUGAGGCCUCCUGGAGA; result = 0.0813 ratio
Sequence = UUUUUAGAGUGUGGGAAAACCAAUCUGAGAAGAACAACUUACCUUGUCCUUGAUGAAGCUGAUAGGAUGCUUGAUAUGGGAUUUGAACCCCAGAUAAGGAAAAUUGUGGAUCAAAUAAGA; result = 0.245 ratio
Sequence = CUGAUAGUCCUAGCAAUUGAUCACAAAAGGAGGCUCACAGCAUGUAAAUUCUCUGGUCUUUAUAGCGUUCACCUGGAAUGGACGACCCUUUUUUUUUUCCUUUGCCUUCUACUUAUUUCU; result = 3.13 ratio
Sequence = UCCCAGACAAAUGAAAGCUACUUUCCUUUUGACGAUGAACUUACACAAGAUAGCAUUGUGGAAGAGCUGGUACUUAUGGAGCAGCAGAUGUCAAUGAAUAAUUCACAUUCUUAUGGUAAC; result = 0.0801 ratio
Sequence = GCCCAUGAGAAGCUAGACAAUAAGAAGGAGUGUUUAGAAGACGUCACUGCUGUGUGUAUAUUAGAAGGGUUUCAAAAUGAGCAGAGCAUGCUGUUAGCUGAUAAAGUUCUUAAACUUCUU; result = 0.571 ratio
Sequence = ACAGUUUAGAUAUUCUUUUUAUUUUUUUUCUUUUCCCUCAAUCCUUUUUUAUUUUUAAAAAUAGUUCUUUUGUAAUGUGGUGUUCAAAACGGAAUUGAAAACUGGCACCCCAUCUCUUUG; result = 208 ratio

Block 3 — technique: DNA-protein interaction ELISA; molecule type: double-stranded DNA, one strand shown; matrix: in vitro, bacterial lysate; concentration: not given; setting: whole dsDNA probe, crude lysate protein; baseline: highest signal in screen; direction: higher = stronger binding; quantity: relative absorbance
Target: Probable WRKY transcription factor 50, DNA-binding domain (WRKY50, Arabidopsis thaliana, UniProt Q8VWQ5, residues 99-173)
Residues (chain): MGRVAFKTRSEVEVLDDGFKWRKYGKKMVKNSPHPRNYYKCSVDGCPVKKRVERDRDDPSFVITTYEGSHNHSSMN
Sequence = AAAAAATATGTTTTCGCTTTATTCTTAAAA; result = 11.2 % of maximum
Sequence = AAAAAAGTTATTATACCTGATCTCGCAAAA; result = 11.9 % of maximum
Sequence = AAAAAACTGTCTGTCCTATATCACTTAAAA; result = 18.3 % of maximum
Sequence = AAAAAACCGACCTGCACGTCGCTGCTAAAA; result = 18.8 % of maximum
Sequence = AAAAAATATCATTGTTACCGTTGCTAAAAA; result = 38.6 % of maximum
Sequence = AAAAAAATGGTGCCGCTGAGCAAATTAAAA; result = 9.43 % of maximum
Sequence = AAAAAAGGGCCCACTATCGACGTCAAAA; result = 25.7 % of maximum
Sequence = AAAAAAAGTAGTTACTGCGAAAGTCTAAAA; result = 23.8 % of maximum

Single results of other studies
SMILES = O=C(Nc1cccc2ccccc12)C1c2ccccc2Oc2ccccc21; system = human, microsomes or S9; conditions = 2 µM, 0.5 h; quantity = remaining compound; result = 66.1%

A few entries again (block 1):
Sequence = UGGGCGU; result = 0.108
Sequence = AUACCGC; result = -0.315
